Measured values pooled from the literature.
Parts stem from different laboratories: compare values within a part only. Several values in a cell are separate wells, animals, samples, runs or records.
UniProt O15264, sequence (whole entry, looked up): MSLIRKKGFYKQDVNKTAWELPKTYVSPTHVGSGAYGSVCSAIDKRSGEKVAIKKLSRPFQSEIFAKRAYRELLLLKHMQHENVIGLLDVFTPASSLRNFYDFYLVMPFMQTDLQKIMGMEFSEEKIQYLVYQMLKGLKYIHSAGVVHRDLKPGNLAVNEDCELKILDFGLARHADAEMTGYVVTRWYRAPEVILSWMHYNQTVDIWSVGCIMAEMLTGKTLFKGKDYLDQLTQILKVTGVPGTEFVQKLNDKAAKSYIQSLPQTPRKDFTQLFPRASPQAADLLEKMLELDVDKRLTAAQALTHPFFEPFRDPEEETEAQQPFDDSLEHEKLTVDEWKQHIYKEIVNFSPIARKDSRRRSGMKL
UniProt P52564, sequence (whole entry, looked up): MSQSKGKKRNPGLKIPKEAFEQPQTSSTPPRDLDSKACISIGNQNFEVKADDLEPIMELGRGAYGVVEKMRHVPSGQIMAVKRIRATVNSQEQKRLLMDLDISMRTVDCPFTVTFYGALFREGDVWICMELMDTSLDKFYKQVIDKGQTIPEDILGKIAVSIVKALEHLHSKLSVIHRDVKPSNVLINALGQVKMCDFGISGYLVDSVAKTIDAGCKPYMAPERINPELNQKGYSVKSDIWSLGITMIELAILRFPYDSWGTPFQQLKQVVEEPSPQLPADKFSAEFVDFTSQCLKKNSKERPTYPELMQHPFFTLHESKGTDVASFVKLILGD
UniProt P51957, sequence (whole entry, looked up): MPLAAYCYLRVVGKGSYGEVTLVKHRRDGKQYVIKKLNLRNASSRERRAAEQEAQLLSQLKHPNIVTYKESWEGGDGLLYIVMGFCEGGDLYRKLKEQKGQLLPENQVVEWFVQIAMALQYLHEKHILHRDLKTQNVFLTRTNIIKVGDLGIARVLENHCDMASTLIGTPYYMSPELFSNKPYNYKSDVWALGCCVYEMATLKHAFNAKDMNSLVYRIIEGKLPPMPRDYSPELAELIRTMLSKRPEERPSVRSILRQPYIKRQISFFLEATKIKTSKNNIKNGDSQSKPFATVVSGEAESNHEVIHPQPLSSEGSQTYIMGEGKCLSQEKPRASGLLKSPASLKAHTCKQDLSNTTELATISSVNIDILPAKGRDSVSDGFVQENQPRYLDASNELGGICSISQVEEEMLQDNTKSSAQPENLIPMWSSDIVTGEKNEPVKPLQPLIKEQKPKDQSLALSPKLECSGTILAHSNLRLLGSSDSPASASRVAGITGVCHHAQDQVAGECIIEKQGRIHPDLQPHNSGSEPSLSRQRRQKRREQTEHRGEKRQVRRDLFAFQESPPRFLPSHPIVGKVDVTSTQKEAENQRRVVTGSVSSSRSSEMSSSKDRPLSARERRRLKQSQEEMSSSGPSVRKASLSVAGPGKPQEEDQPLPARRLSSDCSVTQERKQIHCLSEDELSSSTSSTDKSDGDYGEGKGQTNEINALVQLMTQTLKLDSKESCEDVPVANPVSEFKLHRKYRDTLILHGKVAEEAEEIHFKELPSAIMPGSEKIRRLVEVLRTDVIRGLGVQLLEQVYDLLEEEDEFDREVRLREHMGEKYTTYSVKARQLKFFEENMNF
UniProt Q06187, sequence (whole entry, looked up): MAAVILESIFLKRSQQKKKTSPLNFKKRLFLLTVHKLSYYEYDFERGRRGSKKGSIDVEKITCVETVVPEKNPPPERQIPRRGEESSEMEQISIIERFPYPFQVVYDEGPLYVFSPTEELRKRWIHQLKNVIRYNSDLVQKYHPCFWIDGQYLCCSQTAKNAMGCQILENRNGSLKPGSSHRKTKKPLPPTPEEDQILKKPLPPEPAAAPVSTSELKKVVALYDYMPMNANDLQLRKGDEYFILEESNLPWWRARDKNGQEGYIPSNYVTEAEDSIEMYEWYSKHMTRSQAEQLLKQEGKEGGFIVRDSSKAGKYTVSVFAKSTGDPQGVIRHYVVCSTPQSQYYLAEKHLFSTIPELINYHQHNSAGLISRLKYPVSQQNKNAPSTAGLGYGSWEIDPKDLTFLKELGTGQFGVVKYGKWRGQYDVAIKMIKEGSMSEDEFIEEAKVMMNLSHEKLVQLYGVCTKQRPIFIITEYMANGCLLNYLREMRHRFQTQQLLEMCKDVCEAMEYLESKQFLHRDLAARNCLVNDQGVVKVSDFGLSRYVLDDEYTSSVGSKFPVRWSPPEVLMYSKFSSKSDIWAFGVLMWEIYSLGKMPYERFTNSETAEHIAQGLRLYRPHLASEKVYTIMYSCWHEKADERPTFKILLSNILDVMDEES
UniProt P07948, sequence (whole entry, looked up): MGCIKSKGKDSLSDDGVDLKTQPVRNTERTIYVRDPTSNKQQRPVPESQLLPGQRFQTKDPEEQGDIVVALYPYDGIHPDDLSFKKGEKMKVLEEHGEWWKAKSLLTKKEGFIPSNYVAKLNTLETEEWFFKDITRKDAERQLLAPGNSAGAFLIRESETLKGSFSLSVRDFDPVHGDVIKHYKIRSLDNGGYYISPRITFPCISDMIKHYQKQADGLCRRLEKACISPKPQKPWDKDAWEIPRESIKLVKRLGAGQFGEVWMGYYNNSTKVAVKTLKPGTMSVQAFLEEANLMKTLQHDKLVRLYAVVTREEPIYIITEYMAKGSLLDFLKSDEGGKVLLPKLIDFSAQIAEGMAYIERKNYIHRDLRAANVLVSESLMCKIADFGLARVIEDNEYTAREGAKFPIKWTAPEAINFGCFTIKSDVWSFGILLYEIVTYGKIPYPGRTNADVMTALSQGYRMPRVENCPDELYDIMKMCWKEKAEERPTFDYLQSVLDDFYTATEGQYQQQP
UniProt Q12851, sequence (whole entry, looked up): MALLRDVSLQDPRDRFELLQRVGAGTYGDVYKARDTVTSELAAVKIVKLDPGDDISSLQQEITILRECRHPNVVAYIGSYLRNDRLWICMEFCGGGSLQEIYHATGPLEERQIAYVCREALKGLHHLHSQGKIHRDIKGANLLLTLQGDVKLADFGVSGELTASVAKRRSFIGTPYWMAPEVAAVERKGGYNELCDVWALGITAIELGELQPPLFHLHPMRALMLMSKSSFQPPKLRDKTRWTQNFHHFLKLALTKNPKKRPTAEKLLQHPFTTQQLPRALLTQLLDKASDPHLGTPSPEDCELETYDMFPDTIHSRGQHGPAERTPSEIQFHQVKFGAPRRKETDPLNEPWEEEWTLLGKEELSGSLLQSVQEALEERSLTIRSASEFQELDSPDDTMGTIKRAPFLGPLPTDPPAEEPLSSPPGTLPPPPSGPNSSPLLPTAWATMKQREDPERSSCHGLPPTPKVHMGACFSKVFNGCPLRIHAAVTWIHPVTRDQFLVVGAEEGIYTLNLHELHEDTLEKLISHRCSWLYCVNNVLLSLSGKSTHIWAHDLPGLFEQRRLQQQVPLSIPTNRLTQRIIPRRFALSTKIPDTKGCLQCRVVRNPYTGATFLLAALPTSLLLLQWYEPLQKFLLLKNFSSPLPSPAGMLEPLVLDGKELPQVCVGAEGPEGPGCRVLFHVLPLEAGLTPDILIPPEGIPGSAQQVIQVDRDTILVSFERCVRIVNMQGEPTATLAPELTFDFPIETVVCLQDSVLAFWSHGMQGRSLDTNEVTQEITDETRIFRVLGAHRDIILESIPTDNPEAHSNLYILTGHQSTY
UniProt P53778, sequence (whole entry, looked up): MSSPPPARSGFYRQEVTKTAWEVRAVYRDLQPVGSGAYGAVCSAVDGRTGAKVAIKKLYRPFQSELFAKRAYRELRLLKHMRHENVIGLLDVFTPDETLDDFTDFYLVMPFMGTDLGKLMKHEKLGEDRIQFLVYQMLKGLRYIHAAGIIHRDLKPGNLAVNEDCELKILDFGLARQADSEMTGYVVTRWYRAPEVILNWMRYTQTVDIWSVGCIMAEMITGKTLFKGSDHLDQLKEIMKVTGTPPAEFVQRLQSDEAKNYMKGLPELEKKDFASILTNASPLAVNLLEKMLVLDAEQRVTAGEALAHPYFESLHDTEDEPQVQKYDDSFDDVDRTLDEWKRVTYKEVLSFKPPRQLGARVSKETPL

Set 1
Target: Beta-1 adrenergic receptor (ADRB1, Homo sapiens, UniProt P08588)
UniProt P08588, sequence (whole entry, looked up): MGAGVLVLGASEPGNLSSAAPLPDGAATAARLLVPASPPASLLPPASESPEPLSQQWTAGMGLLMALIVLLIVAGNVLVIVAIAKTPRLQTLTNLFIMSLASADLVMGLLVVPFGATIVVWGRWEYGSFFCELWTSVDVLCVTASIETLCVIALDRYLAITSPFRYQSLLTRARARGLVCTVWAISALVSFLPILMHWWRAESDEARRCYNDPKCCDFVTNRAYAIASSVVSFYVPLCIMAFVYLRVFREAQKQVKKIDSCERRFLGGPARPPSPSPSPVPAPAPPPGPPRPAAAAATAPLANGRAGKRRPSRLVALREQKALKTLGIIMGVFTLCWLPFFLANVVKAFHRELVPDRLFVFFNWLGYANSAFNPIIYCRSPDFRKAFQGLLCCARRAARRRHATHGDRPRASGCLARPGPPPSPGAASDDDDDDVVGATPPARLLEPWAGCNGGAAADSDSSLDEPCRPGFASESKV
Mode: agonist
| SMILES | EC50 [µM] |
| --- | --- |
| O=C(Nc1cccc(-c2ccc(N3CCOCC3)nn2)c1)Nc1ccccc1Cl | ≥ 100 |
| O=C(c1cc(-c2ccc(F)cc2)nc2ccccc12)N1CCCC(c2nc(C3CCOCC3)no2)C1 (stereo not shown) | ≥ 100 |
| COc1cc(CN2CCC(C)(C#N)CC2)ccc1OCC(O)CN1CCOCC1 (stereo not shown) | ≥ 100 |
| C[C@@H]([C@@H](O)c1ccc(O)cc1)N1CCC(O)(c2ccccc2)CC1 | ≥ 100 |
| O=C(C1CCOCC1)N1CCCn2nc(C(O)c3ccccc3)cc2C1 (stereo not shown) | ≥ 100 |
| OC(COc1ccc(CN2CC(Oc3ccccc3)C2)cc1)CN1CCCCC1 (stereo not shown) | ≥ 100 |
| O=C(COc1ccccc1)Nc1ccc([C@@H](O)[C@H]2COCC(=O)N2)cc1 | ≥ 100 |
| CC1(C)C=Cc2cc3ccc(=O)oc3cc2O1 | ≥ 100 |
| Cc1c(-c2ccnc(Nc3cc(Br)cc(C(F)(F)F)c3)n2)sc(=O)n1C | ≥ 100 |
| COC(=O)CCC(=O)N[C@@H](C)C(=O)N[C@@H](C)C(=O)N1CCC[C@H]1C(=O)N[C@H](C(=O)Nc1ccc2c(C)cc(=O)oc2c1)C(C)C | ≥ 100 |
| Cc1noc2c(-c3cnn(C)c3)cc(-c3cccc(C(F)(F)F)c3)nc12 | ≥ 100 |
| O=C(O)c1cc(-c2cccnc2)nc2c(Br)cccc12 | 8.91 |

Set 2
SMILES: CCCCc1c(-c2ccc(OC)cc2)[nH]c2nccnc12
Observed: enzyme activity
Mode: inhibitor
Concentration: 0.5 µM
Baseline: control
| target | remaining activity [%] |
| --- | --- |
| Dual specificity mitogen-activated protein kinase kinase 6 (MAP2K6, Homo sapiens, UniProt P52564) | 96 |
| Serine/threonine-protein kinase Chk1 (CHEK1, Homo sapiens, UniProt O14757) | 93.1 |
| MAP kinase-interacting serine/threonine-protein kinase 2 (MKNK2, Homo sapiens, UniProt Q9HBH9) | 99.3 |
| Casein kinase I isoform alpha (CSNK1A1, Homo sapiens, UniProt P48729) | 92.9 |
| Tyrosine-protein kinase Lyn (LYN, Homo sapiens, UniProt P07948) | 85.5 |
| Mast/stem cell growth factor receptor Kit (KIT, Homo sapiens, UniProt P10721) | 82.9 |
| Mitogen-activated protein kinase 12 (MAPK12, Homo sapiens, UniProt P53778) | 102 |
| Mitogen-activated protein kinase kinase kinase kinase 2 (MAP4K2, Homo sapiens, UniProt Q12851) | 65.1 |
| Tyrosine-protein kinase BTK (BTK, Homo sapiens, UniProt Q06187) | 64.7 |
| Protein kinase C iota type (PRKCI, Homo sapiens, UniProt P41743) | 72.8 |
| Serine/threonine-protein kinase WNK2 (WNK2, Homo sapiens, UniProt Q9Y3S1) | 112 |
| Cyclin-dependent kinase 9, with cyclin T1 (CDK9, Homo sapiens, UniProt P50750) | 55.2 |
| Interleukin-1 receptor-associated kinase 4 (IRAK4, Homo sapiens, UniProt Q9NWZ3) | 163 |
| Mitogen-activated protein kinase kinase kinase 10 (MAP3K10, Homo sapiens, UniProt Q02779) | 82.7 |
| Mitogen-activated protein kinase 13 (MAPK13, Homo sapiens, UniProt O15264) | 99.1 |
| Ephrin type-A receptor 5 (EPHA5, Homo sapiens, UniProt P54756) | 91.6 |
| RAC-gamma serine/threonine-protein kinase (AKT3, Homo sapiens, UniProt Q9Y243) | 102 |
| Leucine-rich repeat serine/threonine-protein kinase 2 (LRRK2, Homo sapiens, UniProt Q5S007) | 83 |
| Casein kinase II subunit alpha (CSNK2A1, Homo sapiens, UniProt P68400) | 97.8 |
| Protein kinase C delta type (PRKCD, Homo sapiens, UniProt Q05655) | 92.8 |
| Serine/threonine-protein kinase Nek4 (NEK4, Homo sapiens, UniProt P51957) | 81.3 |
| cGMP-dependent protein kinase 1 (PRKG1, Homo sapiens, UniProt Q13976) | 92.7 |

Set 3
Target: Calcium/calmodulin-dependent protein kinase type II subunit alpha (CAMK2A, Homo sapiens, UniProt Q9UQM7)
UniProt Q9UQM7, sequence (whole entry, looked up): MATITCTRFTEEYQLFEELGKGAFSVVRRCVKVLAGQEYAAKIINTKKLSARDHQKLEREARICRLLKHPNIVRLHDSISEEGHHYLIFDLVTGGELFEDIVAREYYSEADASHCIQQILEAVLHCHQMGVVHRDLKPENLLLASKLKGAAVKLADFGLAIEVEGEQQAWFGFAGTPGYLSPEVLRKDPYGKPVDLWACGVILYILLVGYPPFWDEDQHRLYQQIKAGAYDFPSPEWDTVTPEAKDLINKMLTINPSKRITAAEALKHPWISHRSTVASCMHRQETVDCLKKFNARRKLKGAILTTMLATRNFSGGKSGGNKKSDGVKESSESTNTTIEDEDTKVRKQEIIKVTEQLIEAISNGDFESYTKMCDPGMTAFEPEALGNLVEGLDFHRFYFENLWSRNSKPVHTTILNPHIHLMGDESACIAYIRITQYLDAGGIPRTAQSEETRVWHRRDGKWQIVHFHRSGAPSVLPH
Observed: enzyme activity
Mode: inhibitor
Concentration: 10 µM
| SMILES | inhibition |
| --- | --- |
| C[C@H](O)C(=O)O | 0% |
| O=c1cc(-c2ccccc2)oc2c(O)c(O)cc(O)c12 | -24% |
| COc1ccc2ccc(=O)oc2c1CC=C(C)C | -21% |
| CCCCCCCCCCCC(=O)O | -25% |
| O=C1O[C@H]2[C@@H]3OC(=O)c4cc(O)c(O)c(O)c4-c4c(cc(O)c(O)c4O)C(=O)OC[C@H]2O[C@@H](OC(=O)c2cc(O)c(O)c(O)c2)[C@@H]3OC(=O)c2cc(O)c(O)c3c2[C@@H]2C1=CC(=O)[C@](O)(O3)C2(O)O | -27% |
| COc1ccc2[nH]c([S+]([O-])Cc3ncc(C)c(OC)c3C)nc2c1 (stereo not shown) | -3% |
| COc1cc(C[C@H](CO)[C@@H](CO)Cc2ccc(O)c(OC)c2)ccc1O | -47% |
| Cc1cc(C(C)(C)C)cc(C)c1CC1=NCCN1 | -6% |
| CC(C)CC(=O)O | 19% |
| CCc1cc(/C(C)=N/OCc2ccc(C3CCCCC3)c(C(F)(F)F)c2)ccc1CN1CC(C(=O)O)C1 | 1% |
| O=C(O)C1=C[C@@H](O)[C@@H](O)[C@H](O)C1 | 12% |
| OC[C@H]1O[C@H](Oc2ccc(O)cc2)[C@H](O)[C@@H](O)[C@@H]1O | 5% |

Set 4
Compound: CCC(=NO)C(C)=Cc1ccc(F)c(C)c1
Concentration: 1 µM
| cell line | medium | setting | baseline | viability |
| --- | --- | --- | --- | --- |
| sample BA colorectal tumour organoid |  |  | DMSO | 97.4% |
| colorectal tumour organoids |  |  | DMSO | 103% |
| sample I colorectal tumour organoid |  | replicate 1 | DMSO | 120% |
| sample B colorectal tumour organoid |  | replicate 1 | DMSO | 79.4% |
| sample B colorectal tumour organoid |  | replicate 2 | DMSO | 98.1% |
| sample C colorectal tumour organoid |  | replicate 1 | DMSO | 90.2% |
| sample I colorectal tumour organoid |  | replicate 2 | DMSO | 114% |
| sample D normal epithelium organoids | human patient-derived organoids |  | DMSO control | 83.3% and 81% |
| sample C colorectal tumour organoid |  | replicate 2 | DMSO | 80.9% |

For quick reference, copied from above (set 1):
| SMILES | EC50 [µM] |
| --- | --- |
| O=C(COc1ccccc1)Nc1ccc([C@@H](O)[C@H]2COCC(=O)N2)cc1 | ≥ 100 |
| CC1(C)C=Cc2cc3ccc(=O)oc3cc2O1 | ≥ 100 |
| Cc1c(-c2ccnc(Nc3cc(Br)cc(C(F)(F)F)c3)n2)sc(=O)n1C | ≥ 100 |
| COC(=O)CCC(=O)N[C@@H](C)C(=O)N[C@@H](C)C(=O)N1CCC[C@H]1C(=O)N[C@H](C(=O)Nc1ccc2c(C)cc(=O)oc2c1)C(C)C | ≥ 100 |
| Cc1noc2c(-c3cnn(C)c3)cc(-c3cccc(C(F)(F)F)c3)nc12 | ≥ 100 |
